# Measured values gathered from unrelated publications.
# A part holds a random share of what one study measured.

# Study 1
# Target: PABPC1L2, full length, GST fusion (mouse, UniProt A0ABA7IW68)
# Method: RNAcompete
# Form: RNA
# Matrix: in vitro
# Tested at: 20 nM
# Setting: 7-mer, probes averaged, single round
# Relative to: mean of 7-mers
# Direction: higher = stronger binding
# Construct (chain): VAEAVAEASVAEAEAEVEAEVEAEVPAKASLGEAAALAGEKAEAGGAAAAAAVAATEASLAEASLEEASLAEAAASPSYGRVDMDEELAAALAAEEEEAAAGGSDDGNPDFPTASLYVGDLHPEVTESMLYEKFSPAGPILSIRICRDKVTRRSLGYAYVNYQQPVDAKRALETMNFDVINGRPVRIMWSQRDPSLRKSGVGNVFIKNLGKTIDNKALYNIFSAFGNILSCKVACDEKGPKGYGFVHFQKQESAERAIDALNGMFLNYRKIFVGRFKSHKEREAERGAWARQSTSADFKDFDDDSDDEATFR
Strand,7-mer Z-score
ACGACGA,0.234
UUUACGC,-0.161
ACACGUA,-0.0518
UCUGCUA,-0.325
GUCCAAU,-0.15
GGCUAGU,-0.0554

# Single results of other studies
# KAT6A both winged helices, GST fusion: Histone acetyltransferase KAT6A, both winged helices, GST fusion (KAT6A, Homo sapiens, UniProt Q92794, residues 1-181)
# SALL4 full length isoform B: Sal-like protein 4, full length isoform B (SALL4, Homo sapiens, UniProt Q9UJQ4-2, residues 1-616)
# Pou5f1 POU domain: POU domain, class 5, transcription factor 1, POU domain (Pou5f1, Mus musculus, UniProt P20263, residues 131-289)
# UniProt P20263, sequence (131-289, looked up): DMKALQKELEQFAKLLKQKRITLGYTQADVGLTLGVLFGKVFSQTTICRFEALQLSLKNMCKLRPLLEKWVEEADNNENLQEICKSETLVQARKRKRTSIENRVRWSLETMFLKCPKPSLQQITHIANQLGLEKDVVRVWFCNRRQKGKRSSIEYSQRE
Substance,target,assay,test system,conditions,how to read,quantity,result
GTGGCCCA,"KAT6A both winged helices, GST fusion",protein binding microarray,"double-stranded DNA, one strand shown, in vitro","not given, 8-mer, flanks averaged, mean of 2 arrays, mostly near background","relative to: not given, higher = stronger binding",E-score,-0.121
GTAAACAC,SALL4 full length isoform B,universal PBM,"double-stranded DNA, one strand shown, in vitro","not given, 8-mer, flanks averaged, mean of replicates",higher = stronger binding,E-score,0.0921
GAGTCGTCTCGTCAGCACGAGTTAATCCGTAGAGCACTCAGGTC,Pou5f1 POU domain,Spec-seq,"double-stranded DNA, one strand shown, in vitro","not given, whole probe, mean of replicates","relative to: not given, lower = stronger binding",relative binding energy,0.528 ln ratio
CAGTCCGG,SALL4 full length isoform B,universal PBM,"double-stranded DNA, one strand shown, in vitro","not given, 8-mer, flanks averaged, mean of replicates",higher = stronger binding,E-score,-0.298
GGGAGCAA,"KAT6A both winged helices, GST fusion",protein binding microarray,"double-stranded DNA, one strand shown, in vitro","not given, 8-mer, flanks averaged, mean of 2 arrays, mostly near background","relative to: not given, higher = stronger binding",E-score,-0.116
GAGTCGTCTCGTCAGCACATGACGATCCGTAGAGCACTCAGGTC,Pou5f1 POU domain,Spec-seq,"double-stranded DNA, one strand shown, in vitro","not given, whole probe, mean of replicates","relative to: not given, lower = stronger binding",relative binding energy,0.759 ln ratio
"PhoQ, residues 284 288 289 292 302 303 TVTVVA","PhoP, residues 12 14 15 18 19 GQALL (Escherichia coli, UniProt P23836)","Sort-seq, measured: YFP reporter",E. coli,"PhoQ-PhoP variant library, together with: 10 µM Mg2+","relative to: high Mg2+ state, higher = stronger signaling",fold induction,9.73

# Repeated from above (study 1):
Strand,7-mer Z-score
UUUACGC,-0.161
ACACGUA,-0.0518
